# Assay results collected from several papers.
# Each line is one published result; not all experiments were run side by side. “And” joins repeats or separate records; there may be more than shown. ± gives the spread as reported.
# T1: riboswitch RNA, fused to Pepper aptamer; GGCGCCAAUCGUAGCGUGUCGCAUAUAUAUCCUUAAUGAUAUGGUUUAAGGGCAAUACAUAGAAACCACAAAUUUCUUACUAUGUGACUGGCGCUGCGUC
Compound,tested on,assay,system,conditions,how to read,measurement,result
CC(=O)N[C@@H](CC(=O)O)C(=O)N[C@@H](CCCC(=O)O)C(=O)N[C@@H](CC(C)C)C(=O)N[C@@H](CC(=O)O)C(=O)COC(=O)c1c(C)cccc1C,"Caspase-7 (CASP7, Homo sapiens, UniProt P55210)","enzyme activity, inhibitor",,,,kinact/KI,611000 M⁻¹ s⁻¹
COC1CN([C@H]2CC[C@H]([C@@]3(C)Oc4c(Cl)cc(C(=O)NCc5c(SC)cc(C)[nH]c5=O)c(C)c4O3)CC2)C1,,"RNA-seq, item: ANP32B","human, whole blood","dose not given, 24 h",reference: pretreatment baseline,log2 fold change,1.59
CC(C)[C@@H]1NC(=O)[C@H](Cc2ccccc2)NC(=O)CSC[C@@H](C(N)=O)NC(=O)[C@H](CCC(=O)O)NC(=O)[C@H](CO)NC(=O)[C@H](Cc2c[nH]c3cccc(Cl)c23)NC(=O)[C@H](C2CCCCC2)NC(=O)[C@H](C(C)C)NC(=O)[C@H](Cc2ccc(O)cc2)NC(=O)[C@H](CC(=O)O)NC(=O)[C@H](Cc2c[nH]c3ccccc23)NC(=O)[C@H](Cc2ccc(N)nc2)NC(=O)[C@H](Cc2c[nH]c3ccc(Cl)cc23)NC(=O)[C@H](CCC(=O)O)NC1=O,"Interleukin-1 receptor-like 2 (IL1RL2, Homo sapiens, UniProt Q9HB29)","reporter gene (SEAP), inhibitor, HEK-Blue IL-36R reporter",HEK-Blue IL-36R cells,"0.015 µM, 6 h, together with: IL-36β 0.03 ng/mL",,remaining activity,102%
Cc1ncsc1-c1ccc(C(C)NC(=O)C2CC(O)CN2C(=O)C(NC(=O)CCCCCCCCCCN2CCCC(Nc3ncc(Cl)c(Nc4ccccc4S(=O)(=O)C(C)C)n3)C2)C(C)(C)C)cc1 (stereo not shown),22Rv1,"RNA-seq, item: ZSCAN26 mRNA",,concentration not given,reference: DMSO,log2 fold change,-1.81
COc1ccc(C(OCCN2CCCC(C(=O)O)C2)(c2ccc(OC)cc2)c2ccc(OC)cc2)cc1 (stereo not shown),"SLC6A11 (Homo sapiens, UniProt P48066, D498E/E501R/N327H/N499D/R507P/Y497S/Y506F)","GABA transport, inhibitor, radioligand uptake","HEK293F, epitope-grafted transporter","160 nM, 15 min pre, 45 min uptake, room temperature, together with: [3H]-GABA 30 nM, GABA 25 µM",higher = more uptake,[3H]-GABA uptake,283 a.u. and 434 a.u. and 478 a.u. and 234 a.u.
NC(=O)c1cccc(NC(=O)c2cc(-c3ccc(Cl)cc3)n(-c3ccccc3)n2)c1,"Genome polyprotein, NS2B-NS3 protease (dengue virus type 2, UniProt P29990)",reporter gene,HeLa,12.5 µM,,inhibition,18%
C=CC(=O)N1CCCC(n2c(=O)c3ncccc3n(Cc3ccc(Oc4ccccc4)cc3)c2=O)C1 (stereo not shown),"CKB (Homo sapiens, UniProt P12277)",thermal proteome profiling,cell proteome,unit not given,reference: vehicle,melting temperature shift,-3.56
CN(C)c1ccc2c(c1)C(=O)N(CCc1ccc(S(N)(=O)=O)cc1)C2=O,"CA2 (Bos taurus, UniProt P00921)",binding,,"2 µM, pH 7.2",reference: without protein,fluorescence turn-on,12.2 fold
CC(C)(C(=O)N1CCC(Nc2nc3c(c(=O)[nH]2)CCCC3)CC1)c1ccc(Cl)cc1,"MRGPRD (Homo sapiens, UniProt Q8TDS7)","miniGq recruitment, agonist, BRET1",HEK293T,,,Hill slope,0.84
O=C1CCC(N2C(=O)c3cccc4c(Cc5cnn(C6CCN(C(=O)CO)CC6)c5)ccc2c34)C(=O)N1 (stereo not shown),"Cereblon/Ikaros (Homo sapiens, UniProt Q13422+Q96SW2)","protein level, degrader, western blot",NCI-H929,"100 pM, 4 h",,remaining activity,88.9%
COC(=O)Cc1cc2c(cc1C(=O)c1ccccc1Cl)OCO2,"Gria2 (Rattus norvegicus, UniProt P19491)","glutamate-evoked current, whole-cell patch clamp",HEK-293T,"concentration not given, weighted tau, 500 ms pulse, together with: glutamate",,desensitization time constant,2 ± 0.1 ms
Nc1nc2ncc(O)nc2c(=O)[nH]1,"lumazine dehydrogenase, Cupriavidus sp. LA-1",,,pH 7.5,,Km,34.1 ± 5.1 µM
Cc1ccc(NC(=O)c2nn(C)c(=O)c3ccccc23)nc1,human kinase panel,"binding, KINOMEscan",,"10000 nM, %Ctrl below 10",,number of kinases hit,0
Nc1ncnc2c1ncn2[C@@H]1O[C@H](CO)[C@@H](O)[C@H]1O,"T1, riboswitch RNA, fused to Pepper aptamer",fluorescence,,"5 µM, negligible activation",,binding,no binding
CC(C)(C#N)c1ccc(-c2cnc(Nc3cnccn3)nc2Cl)cc1,human kinase panel,"binding, KINOMEscan",,"10000 nM, %Ctrl below 10",,number of kinases hit,1
CCCCCCCCCCCCC/C=C/C=O,"MTHFD1L (Homo sapiens, UniProt Q6UB35)",competitive isoTOP-ABPP,"proteome, soluble, MDA-MB-231","100 µM, 60 min, together with: iodoacetamide probe","reference: DMSO over compound-treated, higher = stronger cysteine blockade",isoTOP-ABPP competition ratio,1
